{"data": "Experimental data of several laboratories", "note": "Every numbered part comes from another study and shows a few of its results, in no order.", "UniProt Q9H3Y6, sequence (whole entry, looked up)": "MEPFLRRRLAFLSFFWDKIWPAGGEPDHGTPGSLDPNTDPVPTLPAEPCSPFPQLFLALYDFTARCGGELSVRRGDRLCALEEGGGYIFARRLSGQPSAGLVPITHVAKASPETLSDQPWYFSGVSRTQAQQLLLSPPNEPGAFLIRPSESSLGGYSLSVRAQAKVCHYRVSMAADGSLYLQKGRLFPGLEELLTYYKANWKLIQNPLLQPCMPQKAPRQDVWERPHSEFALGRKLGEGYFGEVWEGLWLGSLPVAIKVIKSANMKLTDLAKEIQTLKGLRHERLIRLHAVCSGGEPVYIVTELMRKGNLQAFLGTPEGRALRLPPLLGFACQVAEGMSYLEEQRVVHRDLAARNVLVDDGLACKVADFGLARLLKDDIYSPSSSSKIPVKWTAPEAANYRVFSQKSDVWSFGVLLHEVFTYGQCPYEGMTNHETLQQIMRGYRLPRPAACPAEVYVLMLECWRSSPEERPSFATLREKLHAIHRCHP", "UniProt P31749, sequence (whole entry, looked up)": "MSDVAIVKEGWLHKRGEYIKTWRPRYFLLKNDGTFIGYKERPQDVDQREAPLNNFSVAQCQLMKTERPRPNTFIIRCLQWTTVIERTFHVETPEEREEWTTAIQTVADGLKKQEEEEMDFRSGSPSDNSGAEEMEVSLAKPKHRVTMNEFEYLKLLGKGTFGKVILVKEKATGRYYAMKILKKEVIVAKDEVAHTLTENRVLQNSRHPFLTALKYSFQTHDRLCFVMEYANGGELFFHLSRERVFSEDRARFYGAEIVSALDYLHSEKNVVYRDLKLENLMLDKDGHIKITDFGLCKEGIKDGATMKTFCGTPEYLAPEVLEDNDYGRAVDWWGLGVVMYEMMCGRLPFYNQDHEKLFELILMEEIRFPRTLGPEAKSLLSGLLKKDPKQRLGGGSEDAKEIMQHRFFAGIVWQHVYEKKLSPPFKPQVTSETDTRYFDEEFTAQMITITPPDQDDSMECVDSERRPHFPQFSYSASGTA", "UniProt Q07912, sequence (whole entry, looked up)": "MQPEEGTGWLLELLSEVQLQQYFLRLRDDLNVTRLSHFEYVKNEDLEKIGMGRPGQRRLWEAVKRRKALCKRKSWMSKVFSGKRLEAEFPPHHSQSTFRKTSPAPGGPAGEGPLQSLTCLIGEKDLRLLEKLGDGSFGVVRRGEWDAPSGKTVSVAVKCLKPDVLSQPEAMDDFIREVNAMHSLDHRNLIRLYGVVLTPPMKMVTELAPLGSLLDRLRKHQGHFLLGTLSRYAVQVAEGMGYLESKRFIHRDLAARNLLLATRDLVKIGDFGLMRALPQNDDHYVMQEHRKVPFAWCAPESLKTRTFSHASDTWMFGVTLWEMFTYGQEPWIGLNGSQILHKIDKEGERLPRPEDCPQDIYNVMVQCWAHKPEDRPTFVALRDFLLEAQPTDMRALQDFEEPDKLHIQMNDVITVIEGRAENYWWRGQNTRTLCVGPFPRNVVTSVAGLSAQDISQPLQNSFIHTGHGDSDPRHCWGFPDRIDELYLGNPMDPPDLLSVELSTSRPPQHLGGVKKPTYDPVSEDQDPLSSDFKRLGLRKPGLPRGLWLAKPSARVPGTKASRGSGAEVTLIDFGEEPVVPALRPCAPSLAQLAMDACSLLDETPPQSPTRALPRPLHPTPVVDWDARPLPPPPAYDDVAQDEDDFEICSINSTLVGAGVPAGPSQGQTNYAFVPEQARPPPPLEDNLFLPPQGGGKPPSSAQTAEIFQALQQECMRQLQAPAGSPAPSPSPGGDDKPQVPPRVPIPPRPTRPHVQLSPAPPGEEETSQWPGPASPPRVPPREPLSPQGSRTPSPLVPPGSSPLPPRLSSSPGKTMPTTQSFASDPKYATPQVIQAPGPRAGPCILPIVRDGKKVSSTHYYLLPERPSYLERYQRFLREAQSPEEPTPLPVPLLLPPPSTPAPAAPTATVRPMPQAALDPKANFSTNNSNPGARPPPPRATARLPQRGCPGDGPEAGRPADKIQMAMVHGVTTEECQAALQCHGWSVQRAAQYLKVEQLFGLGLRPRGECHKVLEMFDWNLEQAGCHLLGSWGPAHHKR", "UniProt Q16584, sequence (whole entry, looked up)": "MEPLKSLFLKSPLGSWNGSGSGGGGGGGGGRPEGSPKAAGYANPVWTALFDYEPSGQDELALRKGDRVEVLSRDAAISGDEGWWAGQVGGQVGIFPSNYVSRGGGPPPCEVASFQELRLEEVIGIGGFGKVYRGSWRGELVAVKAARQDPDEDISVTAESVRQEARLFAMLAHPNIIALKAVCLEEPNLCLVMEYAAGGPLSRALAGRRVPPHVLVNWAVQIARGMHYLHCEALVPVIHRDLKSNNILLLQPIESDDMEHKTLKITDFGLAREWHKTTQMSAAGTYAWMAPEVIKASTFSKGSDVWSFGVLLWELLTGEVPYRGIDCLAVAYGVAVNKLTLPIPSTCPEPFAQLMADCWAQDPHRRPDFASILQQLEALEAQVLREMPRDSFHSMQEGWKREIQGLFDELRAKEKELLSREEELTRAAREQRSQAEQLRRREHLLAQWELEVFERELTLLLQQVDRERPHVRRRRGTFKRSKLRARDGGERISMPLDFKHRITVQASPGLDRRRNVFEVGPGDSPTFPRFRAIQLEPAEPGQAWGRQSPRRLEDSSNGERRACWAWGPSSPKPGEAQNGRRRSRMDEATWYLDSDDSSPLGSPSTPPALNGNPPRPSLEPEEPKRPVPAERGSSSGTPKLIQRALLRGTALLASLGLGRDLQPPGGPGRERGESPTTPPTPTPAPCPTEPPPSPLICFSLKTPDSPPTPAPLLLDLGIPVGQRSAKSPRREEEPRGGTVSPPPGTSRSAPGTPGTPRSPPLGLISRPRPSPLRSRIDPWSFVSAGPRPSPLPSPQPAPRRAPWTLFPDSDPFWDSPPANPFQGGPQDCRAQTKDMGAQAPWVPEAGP"}
{"data": "Block 1", "cell line": "A-375", "tested at": "100 µM", "time": "36 h"}
{"SMILES": "CCN(CC)CCOCCOC(=O)C(CC)(CC)c1ccccc1", "viability": "85.6%"}
{"SMILES": "Cn1c(=O)c2c(ncn2CC(=O)O)n(C)c1=O", "viability": "102%"}
{"SMILES": "O=C(O)c1cc(=O)c2c(OCC(O)COc3cccc4oc(C(=O)O)cc(=O)c34)cccc2o1", "viability": "121%"}
{"SMILES": "Cc1nc2n(c(=O)c1CCN1CCC(c3noc4cc(F)ccc34)CC1)CCCC2O (stereo not shown)", "viability": "96.4%"}
{"SMILES": "NC(=O)CCC(N)C(=O)O (racemic)", "viability": "119%"}
{"SMILES": "Cc1nccn1CC1CCc2c(c3ccccc3n2C)C1=O (stereo not shown)", "viability": "49.5%"}
{"SMILES": "CCCCCCCC(=O)N[C@H](CN1CCCC1)[C@H](O)c1ccc2c(c1)OCCO2", "viability": "19.3%"}
{"SMILES": "N#Cc1ccc2[nH]cc(CCCCN3CCN(c4ccc5oc(C(N)=O)cc5c4)CC3)c2c1", "viability": "2.76%"}
{"SMILES": "CC(C)C(=O)Oc1ccc(CO)cc1[C@H](CCN(C(C)C)C(C)C)c1ccccc1", "viability": "1.9%"}
{"data": "Block 2", "Structure (SMILES)": "CC(C)n1cnc(-c2ccc(F)cc2)c1-c1ncc(C(=O)Nc2ccc(N3CCN(C)CC3)cc2)[nH]1"}
{"assay": "Phase 2a trial, refers to: hepatic steatosis", "system": "human, idiopathic pulmonary fibrosis", "setting": "60 mg once daily, grade 5", "patients with adverse event": "0%"}
{"assay": "Phase 2a trial, refers to: haemoptysis", "system": "human, idiopathic pulmonary fibrosis", "setting": "30 mg once daily, grade 2", "patients with adverse event": "0%"}
{"assay": "refers to: any adverse event, grade 5", "system": "idiopathic pulmonary fibrosis patients", "setting": "oral, 30 mg once daily", "patients with adverse event": "0%"}
{"assay": "Phase 2a trial, refers to: blood pressure increased", "system": "human, idiopathic pulmonary fibrosis", "setting": "30 mg once daily, grade 4", "patients with adverse event": "0%"}
{"assay": "refers to: periorbital oedema, grade 2", "system": "idiopathic pulmonary fibrosis patients", "setting": "oral, 60 mg once daily", "patients with adverse event": "0%"}
{"assay": "Phase 2a trial, refers to: hypocalcaemia", "system": "human, idiopathic pulmonary fibrosis", "setting": "all compound arms total, grade 3", "patients with adverse event": "0%"}
{"assay": "Phase 2a trial, refers to: hypertriglyceridaemia", "system": "human, idiopathic pulmonary fibrosis", "setting": "30 mg once daily, grade 4", "patients with adverse event": "0%"}
{"assay": "Phase 2a trial, refers to: hypercholesterolaemia", "system": "human, idiopathic pulmonary fibrosis", "setting": "30 mg once daily, grade 4", "patients with adverse event": "0%"}
{"assay": "Phase 2a trial, refers to: hypercholesterolaemia", "system": "human, idiopathic pulmonary fibrosis", "setting": "30 mg once daily, grade 3", "patients with adverse event": "0%"}
{"data": "Block 3", "Structure (SMILES)": "Cc1cc(NC(=O)c2cccc(S(F)(F)(F)(F)F)c2)cc(-n2ccn3nc(-c4cccnc4)cc23)c1", "observed": "cell-free assay", "method": "competition with immobilised ligand", "tested at": "1 µM"}
{"target": "CIT (Homo sapiens, UniProt O14578)", "remaining binding": "60.7%"}
{"target": "SRMS (Homo sapiens, UniProt Q9H3Y6)", "remaining binding": "86.9%"}
{"target": "AKT1 (Homo sapiens, UniProt P31749)", "remaining binding": "100%"}
{"target": "TNK2 (Homo sapiens, UniProt Q07912)", "remaining binding": "100%"}
{"target": "MYLK (Homo sapiens, UniProt Q15746)", "remaining binding": "91.8%"}
{"target": "MAP3K11 (Homo sapiens, UniProt Q16584)", "remaining binding": "100%"}
{"data": "Block 4", "target": "STE20-like serine/threonine-protein kinase (SLK, Homo sapiens, UniProt Q9H2G2)", "observed": "enzyme activity", "action": "inhibitor", "tested at": "0.5 µM", "relative to": "control", "UniProt Q9H2G2, sequence (whole entry, looked up)": "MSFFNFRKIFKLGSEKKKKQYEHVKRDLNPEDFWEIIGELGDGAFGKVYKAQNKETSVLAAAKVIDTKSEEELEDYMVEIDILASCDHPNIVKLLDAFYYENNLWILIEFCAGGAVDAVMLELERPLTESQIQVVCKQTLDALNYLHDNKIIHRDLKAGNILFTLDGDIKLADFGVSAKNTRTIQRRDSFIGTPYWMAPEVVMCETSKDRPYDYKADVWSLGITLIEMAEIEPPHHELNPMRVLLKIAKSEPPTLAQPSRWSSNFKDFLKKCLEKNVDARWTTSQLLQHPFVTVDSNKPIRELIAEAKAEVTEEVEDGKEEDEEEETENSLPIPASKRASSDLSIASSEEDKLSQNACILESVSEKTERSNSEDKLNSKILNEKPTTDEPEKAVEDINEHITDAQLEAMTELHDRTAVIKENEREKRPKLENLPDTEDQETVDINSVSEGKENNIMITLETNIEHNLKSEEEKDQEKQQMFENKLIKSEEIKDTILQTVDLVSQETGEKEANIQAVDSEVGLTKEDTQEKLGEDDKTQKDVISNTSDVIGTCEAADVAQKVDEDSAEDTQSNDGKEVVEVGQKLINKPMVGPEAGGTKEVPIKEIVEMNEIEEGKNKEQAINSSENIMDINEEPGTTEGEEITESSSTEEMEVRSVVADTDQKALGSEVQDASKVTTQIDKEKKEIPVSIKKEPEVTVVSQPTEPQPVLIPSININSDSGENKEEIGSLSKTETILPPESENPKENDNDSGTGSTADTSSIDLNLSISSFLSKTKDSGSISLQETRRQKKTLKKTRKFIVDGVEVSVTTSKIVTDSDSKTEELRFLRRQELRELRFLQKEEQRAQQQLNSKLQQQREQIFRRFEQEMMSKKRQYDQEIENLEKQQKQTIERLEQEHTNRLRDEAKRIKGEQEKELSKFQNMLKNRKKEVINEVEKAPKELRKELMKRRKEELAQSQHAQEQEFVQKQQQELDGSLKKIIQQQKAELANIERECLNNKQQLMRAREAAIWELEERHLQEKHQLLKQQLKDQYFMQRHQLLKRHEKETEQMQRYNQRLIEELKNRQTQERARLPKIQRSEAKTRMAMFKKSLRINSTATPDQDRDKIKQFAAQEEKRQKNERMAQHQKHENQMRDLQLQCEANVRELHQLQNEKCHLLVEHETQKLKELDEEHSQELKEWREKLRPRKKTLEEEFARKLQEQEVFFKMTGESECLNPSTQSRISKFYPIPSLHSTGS"}
{"SMILES": "N#CC(c1ccnc(NCCc2cccnc2)n1)c1nc2ccccc2s1 (stereo not shown)", "remaining activity [%]": 87.7}
{"SMILES": "O=C1NC(=O)/C(=C/c2ccc3c(c2)OC(F)(F)O3)S1", "remaining activity [%]": 98.3}
{"SMILES": "Clc1ccc(Nc2nnc(Cc3ccncc3)c3ccccc23)cc1", "remaining activity [%]": 94.2}
{"SMILES": "O=C1NC(=O)c2c1c1c3ccccc3[nH]c1n1cncc21", "remaining activity [%]": 87.8}
{"SMILES": "c1cc(-c2cnn3cc(-c4ccc(OCCN5CCCCC5)cc4)cnc23)ccn1", "remaining activity [%]": 74.9}
{"SMILES": "CCCCc1c(-c2ccc(OC)cc2)[nH]c2nccnc12", "remaining activity [%]": 76.2}
{"SMILES": "O=C(c1cc2cc(O)ccc2[nH]1)c1cc2cc(O)ccc2[nH]1", "remaining activity [%]": 78.6}
{"SMILES": "COc1ccc(COc2ccc(Cc3cnc(N)nc3N)cc2OC)cc1", "remaining activity [%]": 97.7}
{"SMILES": "CC(C)N(CCC(=O)c1ccc2ccccc2c1)Cc1ccccc1", "remaining activity [%]": 101}
{"SMILES": "CN(C)S(=O)(=O)c1ccc2c(c1)/C(=C/c1cc3c([nH]1)CCCC3)C(=O)N2", "remaining activity [%]": 23.4}
{"SMILES": "FC(F)(F)c1ccc(/C=C/c2nc(COc3ccc(CCCCn4ccnn4)cc3)co2)cc1", "remaining activity [%]": 92.8}
{"SMILES": "COc1ccc2c(c1)c(C1=C(c3c[nH]c4ccccc34)C(=O)NC1=O)cn2CCCN(C)C", "remaining activity [%]": 69.4}
{"SMILES": "O=Nc1c(-c2c(O)[nH]c3ccccc23)[nH]c2ccccc12", "remaining activity [%]": 78.7}
{"SMILES": "O=C1NC(=O)c2c1c1c3ccccc3[nH]c1c1[nH]c3cc(Br)ccc3c21", "remaining activity [%]": 90.9}
{"SMILES": "COc1cc2c(Nc3ccc(Br)cc3F)ncnc2cc1OCC1CCN(C)CC1", "remaining activity [%]": 73.9}
{"SMILES": "c1ccc(-c2n[nH]c3c2oc2ccccc23)cc1", "remaining activity [%]": 107}
{"SMILES": "N#Cc1cnc2cnc(NCc3cccnc3)cc2c1Nc1ccc(F)c(Cl)c1", "remaining activity [%]": 86.6}
{"SMILES": "Nc1nc(Nc2ccc(S(N)(=O)=O)cc2)nn1C(=S)Nc1c(F)cccc1F", "remaining activity [%]": 4.58}
{"SMILES": "O=C1Nc2ccccc2/C1=C\\c1c(Cl)[nH]c2ccccc12", "remaining activity [%]": 93.5}
{"SMILES": "O=C(O)/C=C/c1cc(Br)c(Br)c(Br)c1Br", "remaining activity [%]": 96}
{"SMILES": "c1ccc2c(-c3ccncc3)c[nH]c2c1", "remaining activity [%]": 103}
{"SMILES": "Cc1cc(Nc2cc(N3CCN(C)CC3)nc(Sc3ccc(NC(=O)C4CC4)cc3)n2)[nH]n1", "remaining activity [%]": 59.6}
{"SMILES": "Cc1ccc(S(=O)(=O)/C=C/C#N)cc1", "remaining activity [%]": 101}
{"SMILES": "O=c1c(-c2ccc(F)cc2)c(-c2ccncc2)[nH]n1-c1ccc(Cl)cc1", "remaining activity [%]": 98.2}
{"SMILES": "Oc1cccc(-c2nc(N3CCOCC3)c3oc4ncccc4c3n2)c1", "remaining activity [%]": 101}
{"data": "Block 5", "species": "human", "medium": "microsomes or S9", "tested at": "2 µM", "time": "0.5 h"}
{"SMILES": "CCc1nc2cc(Br)c(C(=O)OC)nc2n1CC(=O)c1ccccc1", "remaining compound [%]": 1.34}
{"SMILES": "CN1CC(c2n[nH]c(=O)n2CCc2ccccc2F)CC1=O (stereo not shown)", "remaining compound [%]": "> 99"}
{"SMILES": "Cc1c(-c2ccccc2)sc2ncnc(NS(=O)(=O)c3ccc(Cl)s3)c12", "remaining compound [%]": 0.329}
{"SMILES": "CCc1nc(-n2nc(C)cc2C)c2cc(C)sc2n1", "remaining compound [%]": 69.1}
{"SMILES": "Cc1cc(=O)c(OCC(=O)Nc2ccc3[nH]c(CC(C)C)nc3c2)c[nH]1", "remaining compound [%]": 56.9}
{"SMILES": "OC(CN(c1ccccc1)c1ccccc1)Cn1cnc2ccccc21 (stereo not shown)", "remaining compound [%]": "< 1"}
{"SMILES": "Cn1cc(Br)c(=O)c(NC(=O)c2ccc(O)cc2F)c1", "remaining compound [%]": 88.7}
{"SMILES": "N#Cc1ccc(Oc2ccc(NC(=O)NCc3cc[nH]n3)cn2)cc1", "remaining compound [%]": 66.5}
{"SMILES": "Oc1ccc(Oc2nc3ccccc3nc2Oc2ccc(O)cc2)cc1", "remaining compound [%]": 67.5}
{"note": "Excerpt of the above (block 4):"}
{"SMILES": "O=C1NC(=O)c2c1c1c3ccccc3[nH]c1n1cncc21", "remaining activity [%]": 87.8}
{"SMILES": "N#Cc1cnc2cnc(NCc3cccnc3)cc2c1Nc1ccc(F)c(Cl)c1", "remaining activity [%]": 86.6}
{"SMILES": "O=C1NC(=O)/C(=C/c2ccc3c(c2)OC(F)(F)O3)S1", "remaining activity [%]": 98.3}
{"SMILES": "O=C1Nc2ccccc2/C1=C\\c1c(Cl)[nH]c2ccccc12", "remaining activity [%]": 93.5}
